Assay results gathered from unrelated publications.
Each line is one published result; not all experiments were run side by side. Numbers after ± are the reported error.
Organism: Plasmodium falciparum

| SMILES | assay | system | conditions | IC50 |
| --- | --- | --- | --- | --- |
| C=CC1CN2CCC1CC2C(OC(=O)NCCCCCCNC(=O)OC(c1ccnc2ccc(OC)cc12)C1CC2CCN1CC2C=C)c1ccnc2ccc(OC)cc12 (centres unmarked) | parasite growth | C6 7G8 pfcrt transfectant | – | 82 ± 12 nM |
| CCCCNCC(O)Cn1c2ccccc2c2ccccc21 (centres unmarked) | SYBR Green I | 3D7 chloroquine-sensitive | 72 h | 760 ± 22 nM |
| Oc1c(CN(Cc2ccccn2)Cc2ccccn2)cc(CCn2cc(COCCOCCOCCOCc3cn(CCc4cc(CN(Cc5ccccn5)Cc5ccccn5)c(O)c(CN(Cc5ccccn5)Cc5ccccn5)c4)nn3)nn2)cc1CN(Cc1ccccn1)Cc1ccccn1 | growth, [3H]hypoxanthine incorporation | W2 chloroquine-resistant | 48 h | 79 ± 14 nM |
| CC1CCC(C(C)(C)C(=O)Nc2ccc(Oc3ccccc3)cc2)CC1 (centres unmarked) | parasite proliferation, SYBR Green | 3D7 | 72 h | 48 nM |
| CCC1=C(C)C(c2ccc[nH]2)=NC1=CNC12CC3CC(CC(C3)C1)C2 | parasite growth | 7G8, chloroquine-resistant | – | 14 nM |
| CC[C@H](C)[C@@H]1NC(=O)[C@H](CCCCN)NC(=O)[C@H](CCCCN)NC(=O)[C@H](Cc2ccc(O)cc2)NC(=O)[C@H](CC(C)C)NC(=O)[C@@H]2CCCN2C(=O)CNC(=O)CNC(=O)[C@@H](N)CSSC[C@@H](C(=O)N[C@@H](CCC(=O)O)C(=O)N[C@@H](CO)C(N)=O)NC(=O)[C@H](CC(C)C)NC(=O)[C@H](CCCCN)NC(=O)[C@H](CCCCN)NC(=O)[C@H]([C@@H](C)CC)NC(=O)[C@H]([C@@H](C)CC)NC(=O)[C@H](CCCCN)NC(=O)[C@H](CCCCN)NC(=O)[C@H](Cc2ccc(O)cc2)NC(=O)[C@H](CC(C)C)NC(=O)[C@@H]2CCCN2C(=O)[C@H](C)NC(=O)CNC(=O)CNC(=O)[C@H](CO)NC(=O)CNC(=O)CNC(=O)[C@H](CO)NC(=O)[C@H](CCC(=O)O)NC(=O)[C@H](CC(C)C)NC(=O)[C@H](CC(C)C)NC(=O)[C@H](CCCCN)NC(=O)[C@H](CCCCN)NC(=O)[C@H]([C@@H](C)CC)NC1=O | parasite growth | 3D7 | 72 h, Albumax II medium, no serum | 12500 ± 800 nM |
| COc1cc(O)c(-c2cc(-c3c(C)cc(O)c4c(OC)ccc(-c5c(O)cc(OC)c6c5C[C@@H](C)N(C)[C@@H]6C)c34)c(O)c3c(OC)cc(C)cc23)c2c1[C@@H](C)N(C)[C@H](C)C2 | parasite growth | K1 | drug-resistant strain, blood stage | 6 nM |
| CCC1=CC(=CNC23CC4CC(CC(C4)C2)C3)N=C1c1ccc[nH]1 | parasite growth | 7G8, chloroquine-resistant | – | 90 nM |
| O=C(O)[C@@H]1Cc2c([nH]c3ccccc23)[C@@H](c2ccc(F)cc2I)N1 | parasite growth | Dd2 | 72 h | 970 ± 180 nM |
| CC[C@H](C)[C@@H]1NC(=O)[C@H](CCCCN)NC(=O)[C@H](CCCCN)NC(=O)[C@H](Cc2ccc(O)cc2)NC(=O)[C@H](CC(C)C)NC(=O)[C@@H]2CCCN2C(=O)[C@H](C)NC(=O)CNC(=O)CNC(=O)[C@H](CO)NC(=O)CNC(=O)CNC(=O)[C@H](CO)NC(=O)[C@H](CCC(=O)O)NC(=O)[C@H](CC(C)C)NC(=O)[C@H](CC(C)C)NC(=O)[C@H](CCCCN)NC(=O)[C@H](CCCCN)NC(=O)[C@H]([C@@H](C)CC)NC(=O)[C@H]([C@@H](C)CC)NC(=O)[C@H](CCCCN)NC(=O)[C@H](CCCCN)NC(=O)[C@H](Cc2ccc(O)cc2)NC(=O)[C@H](CC(C)C)NC(=O)[C@@H]2CCCN2C(=O)CNC(=O)CNC(=O)[C@@H](NC(=O)CN)CSSC[C@@H](C(=O)O)NC(=O)[C@H](CC(C)C)NC(=O)[C@H](CCCCN)NC(=O)[C@H](CCCCN)NC(=O)[C@H]([C@@H](C)CC)NC1=O | parasite growth | 3D7 | 72 h, Albumax II medium, no serum | 19300 ± 1100 nM |
| COc1cc2c3c4c1Oc1cc5c(cc1O4)[C@H](Cc1ccc(OCCCN(C)C)c(c1)Oc1ccc(cc1)C[C@@H]3N(C)CC2)N(C)CC5 | parasite growth, SYBR Green I | artemisinin-resistant Cambodian isolates | median | 88 nM |
| C[OH+][Cu-2]12[O]C(c3cn(-c4ccccc4)nc3-c3ccc(C)cc3)=N[N+]1=C(C)c1c(cc(C)oc1=O)[O]2 (centres unmarked) | SYBR Green I | 3D7 | 72 h | 4800 nM |
| Clc1ccc(C2=CC(c3ccc[nH]3)=NC2=CNC2CCCCC2)cc1 | parasite growth | Dd2, chloroquine-resistant | – | > 2500 nM |
| CC(=O)O[C@H]1C[C@@H]2[C@@]3(C)C=CC(=O)C(C)(C)[C@H]3C[C@@H](O)[C@@]2(C)C2=CC[C@@H](c3ccoc3)[C@@]21C | [3H]hypoxanthine incorporation | W2, chloroquine-resistant | – | 30200 ± 500 nM |
| COC1=CC(c2ccc[nH]2)=NC1=CNC1CCCCC1 | parasite growth | 7G8, chloroquine-resistant | – | 30 nM |
| CC[C@H](C)[C@@H]1NC(=O)[C@H](CCCCN)NC(=O)[C@H](CCCCN)NC(=O)[C@H](Cc2ccc(O)cc2)NC(=O)[C@H](CC(C)C)NC(=O)[C@@H]2CCCN2C(=O)[C@H](C)NC(=O)CNC(=O)CNC(=O)[C@H](CO)NC(=O)CNC(=O)CNC(=O)[C@H](CO)NC(=O)[C@H](CCC(=O)O)NC(=O)[C@H](CC(C)C)NC(=O)[C@H](CC(C)C)NC(=O)[C@H](CCCCN)NC(=O)[C@H](CCCCN)NC(=O)[C@H]([C@@H](C)CC)NC(=O)[C@H]([C@@H](C)CC)NC(=O)[C@H](CCCCN)NC(=O)[C@H](CCCCN)NC(=O)[C@H](Cc2ccc(O)cc2)NC(=O)[C@H](CC(C)C)NC(=O)[C@@H]2CCCN2C(=O)[C@H](C)NC(=O)CNC(=O)[C@@H]2CSSC[C@H](NC(=O)[C@H](CC(C)C)NC(=O)[C@H](CCCCN)NC(=O)[C@H](CCCCN)NC(=O)[C@H]([C@@H](C)CC)NC1=O)C(=O)N[C@@H](CCC(N)=O)C(=O)N[C@@H](CC(N)=O)C(=O)NCC(=O)N2 | parasite growth | 3D7 | 72 h, 5% serum plus Albumax II | 24700 ± 3000 nM |
| CC[C@H](C)[C@@H]1NC(=O)[C@@H]2CSSC[C@H](NC(=O)[C@H](Cc3ccccc3)NC(=O)[C@@H]3CSSC[C@H](NC1=O)C(=O)N[C@@H](CC(C)C)C(=O)N[C@@H](C)C(=O)NCCCC[C@@H](NC(=O)[C@@H](Cc1ccccc1)NC(=O)[C@@H](CC(C)C)NC(=O)[C@@H]1CCCN1C(=O)[C@@H](CC(C)C)NC(=O)[C@@H](Cc1ccccc1)NC(=O)[C@@H](CCC(=O)O)NC(=O)[C@@H](C)NC(=O)[C@@H](Cc1ccccc1)NC(=O)[C@H](N)C(C)C)C(=O)N3)C(=O)N[C@@H]([C@@H](C)O)C(=O)N[C@@H](CCCNC(=N)N)C(=O)N[C@@H](CCSC)C(=O)N[C@@H](CO)C(=O)N1CCC[C@H]1C(=O)N1CCC[C@H]1C(=O)N[C@@H](CCC(N)=O)C(=O)N2 | parasite growth | 3D7 | two cycles | ~52 nM |
| Cc1c(-c2ccc[nH]2)c[nH]c1C=NC12CC3CC(CC(C3)C1)C2 | parasite growth | Dd2, chloroquine-resistant | – | > 2500 nM |
| COc1ccc2cc1Oc1cc3c(cc1OC)CCN(C)C3Cc1ccc(cc1)Oc1c(O)c(OC)cc3c1C(C2)N(C)CC3 (centres unmarked) | parasite growth, SYBR Green | – | blood stage | 470 nM |
| CCC1=C(C)C(c2ccc[nH]2)=NC1=CNC1CCCCCCC1 | parasite growth | Dd2, chloroquine-resistant | – | 201 nM |
| c1cncc(CCCOCCCCCCCCCCOC2CCCCO2)c1 (centres unmarked) | anti-HRPII ELISA | W2 chloroquine-resistant | 72 h | 14000 ± 600 nM |
| CC[C@H](C)[C@@H]1NC(=O)[C@H](CCCCN)NC(=O)[C@H](CCCCN)NC(=O)[C@H](Cc2ccc(O)cc2)NC(=O)[C@H](CC(C)C)NC(=O)[C@@H]2CCCN2C(=O)CNC(=O)CNC(=O)[C@@H](NC(=O)CN)CSSC[C@@H](C(=O)N[C@@H](CCC(=O)O)C(=O)N[C@@H](CO)C(N)=O)NC(=O)[C@H](CC(C)C)NC(=O)[C@H](CCCCN)NC(=O)[C@H](CCCCN)NC(=O)[C@H]([C@@H](C)CC)NC(=O)[C@H]([C@@H](C)CC)NC(=O)[C@H](CCCCN)NC(=O)[C@H](CCCCN)NC(=O)[C@H](Cc2ccc(O)cc2)NC(=O)[C@H](CC(C)C)NC(=O)[C@@H]2CCCN2C(=O)[C@H](C)NC(=O)CNC(=O)CNC(=O)[C@H](CO)NC(=O)CNC(=O)CNC(=O)[C@H](CO)NC(=O)[C@H](CCCCN)NC(=O)[C@H](CC(C)C)NC(=O)[C@H](CC(C)C)NC(=O)[C@H](CCCCN)NC(=O)[C@H](CCCCN)NC(=O)[C@H]([C@@H](C)CC)NC1=O | parasite growth | 3D7 | 72 h, Albumax II medium, no serum | 5000 ± 100 nM |
| C1=CC(c2ccc[nH]2)=NC1=CNC1CCCCCCC1 | parasite growth | Dd2, chloroquine-resistant | – | > 2500 nM |

Excerpt of the above:
| SMILES | assay | system | conditions | IC50 |
| --- | --- | --- | --- | --- |
| CC[C@H](C)[C@@H]1NC(=O)[C@H](CCCCN)NC(=O)[C@H](CCCCN)NC(=O)[C@H](Cc2ccc(O)cc2)NC(=O)[C@H](CC(C)C)NC(=O)[C@@H]2CCCN2C(=O)[C@H](C)NC(=O)CNC(=O)CNC(=O)[C@H](CO)NC(=O)CNC(=O)CNC(=O)[C@H](CO)NC(=O)[C@H](CCC(=O)O)NC(=O)[C@H](CC(C)C)NC(=O)[C@H](CC(C)C)NC(=O)[C@H](CCCCN)NC(=O)[C@H](CCCCN)NC(=O)[C@H]([C@@H](C)CC)NC(=O)[C@H]([C@@H](C)CC)NC(=O)[C@H](CCCCN)NC(=O)[C@H](CCCCN)NC(=O)[C@H](Cc2ccc(O)cc2)NC(=O)[C@H](CC(C)C)NC(=O)[C@@H]2CCCN2C(=O)CNC(=O)CNC(=O)[C@@H](NC(=O)CN)CSSC[C@@H](C(=O)O)NC(=O)[C@H](CC(C)C)NC(=O)[C@H](CCCCN)NC(=O)[C@H](CCCCN)NC(=O)[C@H]([C@@H](C)CC)NC1=O | parasite growth | 3D7 | 72 h, Albumax II medium, no serum | 19300 ± 1100 nM |
